Published values of several laboratories.
Numbered parts are unrelated; each lists some results of a single study.

Sample 1
Target: Histone acetyltransferase KAT6A, both winged helices, GST fusion (KAT6A, Homo sapiens, UniProt Q92794, residues 1-181)
Technique: protein binding microarray
Molecule type: double-stranded DNA, one strand shown
Sample: in vitro
Concentration: not given
Setting: 8-mer, flanks averaged, mean of 2 arrays, mostly near background
Reference: not given
Direction: higher = stronger binding
Measurement: E-score
Residues (chain): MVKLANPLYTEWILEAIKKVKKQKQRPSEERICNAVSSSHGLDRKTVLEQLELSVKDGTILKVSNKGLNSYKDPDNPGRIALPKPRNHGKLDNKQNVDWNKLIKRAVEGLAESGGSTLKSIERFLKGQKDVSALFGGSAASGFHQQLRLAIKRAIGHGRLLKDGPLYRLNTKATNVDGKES
TCTTTCCA: -0.107
GCGAAAAA: 0.0974
CATATAAA: 0.0818
ACTCGCCG: 0.266

Sample 2
Target: Phosphate system positive regulatory protein PHO4, full length, GST-tagged (PHO4, Saccharomyces cerevisiae, UniProt P07270, residues 1-312)
Technique: competition protein-binding microarray
Molecule type: double-stranded DNA, one strand shown
Sample: in vitro
Concentration: 2 µM
Setting: whole 60-bp probe, lowest competitor level
Together with: Cbf1 competitor, 0.05 µM
Direction: higher = stronger binding
Measurement: fluorescence intensity
Target sequence (chain): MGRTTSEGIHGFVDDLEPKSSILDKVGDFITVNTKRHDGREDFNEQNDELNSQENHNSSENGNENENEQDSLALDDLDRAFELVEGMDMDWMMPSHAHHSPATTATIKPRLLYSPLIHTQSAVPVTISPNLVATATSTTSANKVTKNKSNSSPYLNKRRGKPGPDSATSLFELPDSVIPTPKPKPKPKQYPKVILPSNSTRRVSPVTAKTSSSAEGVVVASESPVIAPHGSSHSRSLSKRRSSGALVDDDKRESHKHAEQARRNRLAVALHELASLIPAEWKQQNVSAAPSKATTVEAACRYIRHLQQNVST
GTAAAACTTTATTAGCTCGTGCTTTCGCGGCTCAGAGTCTTGATTCGCTTGACGCTGCTG: 10700 a.u.
TTGAATGAGCAATCGCACGATGTCCCAATGGCACTCGTCTTGATTCGCTTGACGCTGCTG: 9850 a.u.
CTAACGAAGGTTTGACGGGTGGGTGACAAGCCAAGTGTCTTGATTCGCTTGACGCTGCTG: 4050 a.u.

Sample 3
Target: Interferon regulatory factor 7, full length, phosphomimetic (IRF7, Homo sapiens, UniProt Q92985, residues 1-503, S471D/S472D/S475D/S476D/S477D/S483D/S484D/S487D)
Technique: protein-binding microarray
Molecule type: double-stranded DNA, one strand shown
Sample: in vitro
Concentration: 2200 nM top
Setting: 60-bp whole probe
Together with: salmon DNA 0.4 mg/ml
Reference: random background probes
Direction: higher = stronger binding
Measurement: fitted relative affinity
Target sequence (chain): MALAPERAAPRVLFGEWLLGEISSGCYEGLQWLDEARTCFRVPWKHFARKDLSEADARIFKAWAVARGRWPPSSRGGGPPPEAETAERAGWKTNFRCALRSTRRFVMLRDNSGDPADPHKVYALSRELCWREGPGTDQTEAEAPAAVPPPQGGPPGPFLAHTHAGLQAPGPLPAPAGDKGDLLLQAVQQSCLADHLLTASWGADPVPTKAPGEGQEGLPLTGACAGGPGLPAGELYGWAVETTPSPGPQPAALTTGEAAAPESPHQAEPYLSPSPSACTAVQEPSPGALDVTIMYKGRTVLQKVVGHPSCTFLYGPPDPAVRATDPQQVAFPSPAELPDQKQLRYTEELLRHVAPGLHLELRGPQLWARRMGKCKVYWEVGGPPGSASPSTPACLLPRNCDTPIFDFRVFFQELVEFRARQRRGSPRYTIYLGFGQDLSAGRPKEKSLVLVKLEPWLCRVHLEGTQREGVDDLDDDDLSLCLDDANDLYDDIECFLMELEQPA
GCCTAGCACCACGATTTCGGGTATCGAGACGTGCTAGTCTTGATTCGCTTGACGCTGCTG: 3.15 z-score
GCCTAGCACTCATCTCTGCTTCTGTAACTGTGCTAGGTCTTGATTCGCTTGACGCTGCTG: 1.8 z-score
GCCTAGCACGATGATTCCAGTTTCGAGACGTGCTAGGTCTTGATTCGCTTGACGCTGCTG: 4.63 z-score

Mixed results
PhoQ, residues 284 288 289 292 302 303 SCKMEA  fold induction (PhoP, residues 12 14 15 18 19 NHFRA (Escherichia coli, UniProt P23836); Sort-seq, refers to: YFP reporter; E. coli; PhoQ-PhoP variant library, together with: 10 µM Mg2+; reference: high Mg2+ state, higher = stronger signaling): 2.75

Excerpt of the above (sample 2):
GTAAAACTTTATTAGCTCGTGCTTTCGCGGCTCAGAGTCTTGATTCGCTTGACGCTGCTG: 10700 a.u.
